Measured values collected from several papers.
Protocols differ between the studies behind these lines. “And” joins repeats or separate records; there may be more than shown. Numbers after ± are the reported error.

Nc1cccc2c1C(=O)N(C1CCC(=O)NC1=O)C2=O (centres unmarked)
surface marker level (RPMI-8226; flow cytometry, item: CD104; concentration not given; reference: comparator compound alone): 279%

O=C(O)/C=C/c1ccc(O)c(O)c1
mRNA level (H9c2; real-time PCR, item: Tnf-α, Il-1β and Il-6; concentration not given, together with: H2O2): inhibited

Cc1ccc(C(=O)c2cc(O)c(O)c([N+](=O)[O-])c2)cc1
IC50 (HD-MB03; cell growth; 168 h, single agent): 0.745 µM

Cc1cccc(-c2[nH]c(CNc3ccccc3F)nc2-c2ccc3ncnn3c2)n1
surface marker level (RPMI-8226; flow cytometry, item: CD314; concentration not given; reference: comparator compound alone): 157%

CC/C(=N\NC(=O)NCc1cccc(O)c1)c1ccc(O)c(C)c1O
LATS band intensity (SK-OV-3; Western blot; 10 µM, 6 h, 2D culture, unit not given; reference: DMSO): 1 ± 0.41

Cc1cnc(NC2CCOCC2)nc1-n1cnc(C(=O)NC(CN)c2cc(F)cc(Cl)c2)c1 (centres unmarked)
sub-G0 cells (A-375; flow cytometry; 1 µM, 72 h): 0%

NC(=O)c1cccc2c1O/C(=C\c1ccc(C(=O)N3CCN(c4nc5ccccc5[nH]4)CC3)s1)C2=O
PARylation (SUM149; cellular PARylation, inhibitor, Western blot; together with: H2O2): inhibited

CC(C)c1c2cc(-c3ccnc(NC4CCC(NC5CCOCC5)CC4)n3)ccc2nn1C (centres unmarked)
fold change in IC50 (HD-MB03; concentration not given, together with: ribociclib NG; reference: ribociclib over DMSO): 1.42

C=CCn1c(=O)c2cnc(Nc3ccc(N4CCN(C)CC4)cc3)nc2n1-c1ccc2c(n1)[C@@](O)(CC)CC2
cells in G1 phase among γH2AX-positive cells (MDA-MB-231; flow cytometry; concentration not given): 8.8%

Cc1cc(Nc2ncc(Cl)c(Nc3ccccc3S(=O)(=O)C(C)C)n2)c(OC(C)C)cc1C1CCNCC1
log2 fold change (CLB-GE; phosphoproteomics LC-MS/MS, item: SOS1 phosphorylation; 200 nM, 60 min; reference: untreated): -3.24

CC(C)(c1ccc(O)cc1)c1ccc(O)cc1
G1 phase cells (HepG2 spheroids; Hoechst flow cytometry; 1 µM, 96 h): 72 ± 7.13%

CC(=O)CC(c1ccccc1)c1c(O)c2ccccc2oc1=O (centres unmarked)
reporter protein carboxylation (double-gene knockout reporter cells; GGCX-mediated carboxylation; 10 µM, together with: vitamin K 10 µM): no effect

O=C(C[C@@H](C(F)F)n1ccc(F)n1)N1CCC(O)(Cn2cnc3c(cnn3-c3ccc(F)cc3)c2=O)CC1
apoptotic cells (early plus late) (CHP-212 parental (wild-type USP7); annexin V-PI flow cytometry; 0.3 µM, 48 h): 34.8% and 40.2% and 42% and 33.2% and 27.4% and 44.3%

CC(C)C[C@H](NC(=O)N1CCCCCC1)C(=O)N[C@H](Cc1cn(C)c2ccccc12)C(=O)N[C@H](Cc1ccc(O)cc1)C(=O)O
Kd (PC-3 intact cells, vector; radioligand binding): 0.000163 µM

COc1cc(Nc2ncc3c(n2)-c2ccc(Cl)cc2C(c2c(F)cccc2OC)=NC3)ccc1C(=O)O
IC50 (HD-MB03; cell growth; 168 h, single agent): 0.0297 µM

CC(C)=CCC[C@@]1(C)C(CC[C@H]2[C@]3(C)CC[C@H](O)C(C)(C)O[C@H]3CC[C@@]2(C)O)=C(C)CC[C@H]1O
intracellular [3H]-paclitaxel remaining (KB-C2 (P-gp overexpressing); drug efflux; 10 µM, 30 min): 82.7%

Cc1nc(NC(=O)N2CCC[C@H]2C(N)=O)sc1-c1ccnc(C(C)(C)C(F)(F)F)c1
Hill coefficient GR curve (NCI-H1048; cell growth, CellTiter-Glo; 120 h): 1.21

Cc1ccc(-c2cc3ccccc3c(N)n2)cc1
early apoptotic cells (Jurkat; annexin V-FITC/PI flow cytometry, item: annexin V+ PI-; 5.0 µM, 72 h): 13.6%

Cn1cnc2c(F)c(Nc3ccc(Br)cc3F)c(C(=O)NOCCO)cc21
viability (A-375; 10 µM, 72 h): 18%

CCn1cc(-c2cc(Cn3ccoc3=N)cc3c2CCN([C@@H](C)c2cc(OC)ccn2)C3=O)c(C(F)(F)F)n1
EC50 (COV504; cell growth, inhibitor; 120 h): 0.00745 µM

Nc1nc2[nH]cc(CCc3ccc(C(=O)N[C@@H](CCC(=O)O)C(=O)O)cc3)c2c(=O)[nH]1
IC50 (HD-MB03; cell growth; 168 h, single agent): 0.0577 µM

CCCCc1oc2ccc(NS(C)(=O)=O)cc2c1C(=O)c1ccc(OCCCN(CCCC)CCCC)cc1
fold change (human embryonic stem cell aggregates; mRNA level, microarray, item: OLIG3; 0.5 µM, 120 h; reference: untreated, up-regulated): 7.2 fold

Cn1c(Nc2nc3ccc(C(F)(F)F)cc3s2)nc2cc(C(=O)NCCOCCO)ccc21
fold change (SH-SY5Y; RNA-seq, item: TNS1 mRNA; 5 µM, 5 h; reference: untreated cells): 1.69

Cn1cc(-c2ccc(-c3cncc(Cl)c3N3CCC4(CCNC4=O)CC3)cc2)cn1
log2 fold change (COLO 205; gene expression, microarray, item: TIMP2 mRNA; concentration not given, 2 h; reference: untreated cells): 2.58

CCN(CCO)CCCC(C)Nc1ccnc2cc(Cl)ccc12 (centres unmarked)
inhibition (human PBMC; qRT-PCR, item: IRF7 mRNA; 1000 nM, together with: ssRNA): 6 ± 6%

Cn1cnc2c(F)c(Nc3ccc(Br)cc3Cl)c(C(=O)NOCCO)cc21
IC50 (HD-MB03; cell growth; 168 h, DMSO): 3.62 µM

O=C(/C=C/C=C/C=C/C1CCCCC1)NC1=C[C@@](O)(/C=C/C=C/C=C/C(=O)NC2=C(O)CCC2=O)[C@@H]2O[C@@H]2C1=O
GI50 (NCI-H358; cell growth, CellTiter-Glo; 78 h): 12 µM

CCn1cc(-c2cc(Cn3ccnc3)cc3c2CCN([C@H](c2cc(OC)ccn2)C2CC2)C3=O)c(C(F)(F)F)n1
EC50 (Calu-6; cell growth, inhibitor; 120 h): 3.25 µM

O=C(O)COCC(=O)O
IC50 (iPSC-derived hepatocytes B3; cell viability; 24 h, differentiation day 23): 8180 µM

COc1cc(/C=C/C(=O)N2CCC=CC2=O)cc(OC)c1OC
mRNA level (MDA-MB-468; quantitative RT-PCR, item: PTGIS; 30 µM, 8 h; reference: untreated cells): 55.2 ± 6.8%

CC/C(=N\NC(=O)C(C)Nc1ccccc1)c1ccc(O)c(C)c1O (centres unmarked)
protein level (SK-OV-3; Western blot, item: TAZ; 10 µM, 1 h, 2D culture, unit not given; reference: β-actin): 1.41 ± 0.09

CCc1cnc(N2CCC(c3nc(COc4ccc(-n5cnnn5)cc4)cs3)CC2)nc1
log2 fold change (HEK293T; RNA-seq, item: CLU mRNA; 10 µM, 6 h; reference: vehicle): 0.19

COc1cccc(-c2cccc(NC(=O)CCc3cccc4c3B(O)OC4)c2)c1
resistance (HCT-116 CPSF3 mutant clones; reference: parental HCT-116): ≥ 3.4 fold

COc1cnc2cccc(N3CCc4c(cc(Cn5ccnc5C)cc4-c4cn(C)nc4C(F)(F)F)C3=O)c2c1
EC50 (HCT-8; cell growth, inhibitor; 120 h): 2.02 µM

CCCCCCCC(=O)Nc1ncc(Cc2cccc(OCc3cn(CCOC)nn3)c2)s1
inhibition (HGC-27; cell viability, MTS; 10 µM): 44.2 ± 21.9%

S=C([S][Au-][P+](CCCCCC[P+]([Au-][S]C(=S)n1cccn1)(c1ccccc1)c1ccccc1)(c1ccccc1)c1ccccc1)n1cccn1
log TGI (786-O; cell growth, NCI-60 screen; renal cancer): > -4 log10 M

C[C@]12CC[C@@H]3c4ccc(OS(=O)(=O)O)cc4CC[C@H]3[C@@H]1CCC2=O
reversal of trafficking deficit (primary rat hippocampal/cortical neuron-glia cultures; 1 µM, together with: 1 µM α-synuclein oligomers): 13.3%

CCN(Cc1cnc2nc(N)nc(N)c2n1)c1ccc(C(=O)N2CCC(C(=O)OC)CC2)cc1
mitochondrial toxicity (786-O; high-content imaging, item: MitoTracker Red uptake; 10 µM): -8.37 ± 6.97%

COc1cc(C(=O)O)ccc1NC(=O)[C@@H]1N[C@@H](CC(C)(C)C)[C@](C#N)(c2ccc(Cl)cc2F)[C@H]1c1cccc(Cl)c1F
IC50 (HD-MB03; cell growth; 168 h, DMSO): 0.08 µM

CCN(c1nc(N)c(C(=O)NC(=N)N)nc1Cl)C(C)C
reduction of Aβ-positive cells (HMC3; endocytosis, flow cytometry; 30 µM, 2 h pretreatment then 3 h, together with: FITC-Aβ 25 µM): 14.4%

CON(C)C(=O)N1N=C(c2cc(F)ccc2F)S[C@@]1(CCCN)c1ccccc1
IC50 (HD-MB03; cell growth; 168 h, single agent): 0.00383 µM

O=C(COC(=O)c1ccccc1Nc1cccc(C(F)(F)F)c1)NNS(=O)(=O)c1ccccc1
mTOR protein level (RAW264.7; Western blot; concentration not given, 72 h, unit not given, together with: LPS; reference: control): 0.437

CC1(C)CN=C(N2CCN(c3ncnc4sc(CC(F)(F)F)cc34)CC2)S1
fold change in IC50 (HD-MB03; concentration not given, together with: ribociclib NG; reference: ribociclib over DMSO): 0.674

C=CC1=C(C)c2cc3[n-]c(cc4nc(cc5[n-]c(cc1n2)c(C)c5C=C)C(C)=C4CCC(=O)O)c(CCC(=O)O)c3C.[Zn+2]
fold change (SH-SY5Y; RNA-seq, item: SPHK1 mRNA; 5 µM, 5 h; reference: untreated cells): 1.99

COc1cc(C)nc(-n2nc(C)cc2OC)n1
reversal of trafficking deficit (primary rat hippocampal/cortical neuron-glia cultures; 1 µM, together with: 1 µM α-synuclein oligomers): 6.71%

Cn1cc(Nc2nccc(-c3ccc4c(c3)CN(C3COC3)CC[C@H]4NC(=O)c3cn(C(C)(C)C)nn3)n2)cn1
pathway activation z-score (mouse splenic B cells; item: Dolichyl-diphosphooligosaccharide biosynthesis; 30 mg/kg, IgD-activated in vivo; reference: vehicle, direction not given): -1

CC(=O)O[C@H]1[C@H](OC(C)=O)[C@@H](Nc2cc3cccnc3c3ncccc23)OC[C@@H]1OC(C)=O
selectivity ratio (HFF-1 and PC-3; MTT; 48 h, dark; reference: IC50 HFF-1 over IC50 PC-3): 10

For quick reference, copied from above:
CCn1cc(-c2cc(Cn3ccnc3)cc3c2CCN([C@H](c2cc(OC)ccn2)C2CC2)C3=O)c(C(F)(F)F)n1
EC50 (Calu-6; cell growth, inhibitor; 120 h): 3.25 µM

CC(=O)CC(c1ccccc1)c1c(O)c2ccccc2oc1=O (centres unmarked)
reporter protein carboxylation (double-gene knockout reporter cells; GGCX-mediated carboxylation; 10 µM, together with: vitamin K 10 µM): no effect

O=C(C[C@@H](C(F)F)n1ccc(F)n1)N1CCC(O)(Cn2cnc3c(cnn3-c3ccc(F)cc3)c2=O)CC1
apoptotic cells (early plus late) (CHP-212 parental (wild-type USP7); annexin V-PI flow cytometry; 0.3 µM, 48 h): 34.8% and 40.2% and 42% and 33.2% and 27.4% and 44.3%

C=CC1=C(C)c2cc3[n-]c(cc4nc(cc5[n-]c(cc1n2)c(C)c5C=C)C(C)=C4CCC(=O)O)c(CCC(=O)O)c3C.[Zn+2]
fold change (SH-SY5Y; RNA-seq, item: SPHK1 mRNA; 5 µM, 5 h; reference: untreated cells): 1.99

CC(C)C[C@H](NC(=O)N1CCCCCC1)C(=O)N[C@H](Cc1cn(C)c2ccccc12)C(=O)N[C@H](Cc1ccc(O)cc1)C(=O)O
Kd (PC-3 intact cells, vector; radioligand binding): 0.000163 µM

Cc1ccc(-c2cc3ccccc3c(N)n2)cc1
early apoptotic cells (Jurkat; annexin V-FITC/PI flow cytometry, item: annexin V+ PI-; 5.0 µM, 72 h): 13.6%

O=C(COC(=O)c1ccccc1Nc1cccc(C(F)(F)F)c1)NNS(=O)(=O)c1ccccc1
mTOR protein level (RAW264.7; Western blot; concentration not given, 72 h, unit not given, together with: LPS; reference: control): 0.437

COc1cc(/C=C/C(=O)N2CCC=CC2=O)cc(OC)c1OC
mRNA level (MDA-MB-468; quantitative RT-PCR, item: PTGIS; 30 µM, 8 h; reference: untreated cells): 55.2 ± 6.8%
